Measurements of several laboratories.
A part holds a random share of what one study measured. “And” joins repeats or separate records; there may be more than shown.
Chain of UniProt Q9NRP7 (whole entry, looked up): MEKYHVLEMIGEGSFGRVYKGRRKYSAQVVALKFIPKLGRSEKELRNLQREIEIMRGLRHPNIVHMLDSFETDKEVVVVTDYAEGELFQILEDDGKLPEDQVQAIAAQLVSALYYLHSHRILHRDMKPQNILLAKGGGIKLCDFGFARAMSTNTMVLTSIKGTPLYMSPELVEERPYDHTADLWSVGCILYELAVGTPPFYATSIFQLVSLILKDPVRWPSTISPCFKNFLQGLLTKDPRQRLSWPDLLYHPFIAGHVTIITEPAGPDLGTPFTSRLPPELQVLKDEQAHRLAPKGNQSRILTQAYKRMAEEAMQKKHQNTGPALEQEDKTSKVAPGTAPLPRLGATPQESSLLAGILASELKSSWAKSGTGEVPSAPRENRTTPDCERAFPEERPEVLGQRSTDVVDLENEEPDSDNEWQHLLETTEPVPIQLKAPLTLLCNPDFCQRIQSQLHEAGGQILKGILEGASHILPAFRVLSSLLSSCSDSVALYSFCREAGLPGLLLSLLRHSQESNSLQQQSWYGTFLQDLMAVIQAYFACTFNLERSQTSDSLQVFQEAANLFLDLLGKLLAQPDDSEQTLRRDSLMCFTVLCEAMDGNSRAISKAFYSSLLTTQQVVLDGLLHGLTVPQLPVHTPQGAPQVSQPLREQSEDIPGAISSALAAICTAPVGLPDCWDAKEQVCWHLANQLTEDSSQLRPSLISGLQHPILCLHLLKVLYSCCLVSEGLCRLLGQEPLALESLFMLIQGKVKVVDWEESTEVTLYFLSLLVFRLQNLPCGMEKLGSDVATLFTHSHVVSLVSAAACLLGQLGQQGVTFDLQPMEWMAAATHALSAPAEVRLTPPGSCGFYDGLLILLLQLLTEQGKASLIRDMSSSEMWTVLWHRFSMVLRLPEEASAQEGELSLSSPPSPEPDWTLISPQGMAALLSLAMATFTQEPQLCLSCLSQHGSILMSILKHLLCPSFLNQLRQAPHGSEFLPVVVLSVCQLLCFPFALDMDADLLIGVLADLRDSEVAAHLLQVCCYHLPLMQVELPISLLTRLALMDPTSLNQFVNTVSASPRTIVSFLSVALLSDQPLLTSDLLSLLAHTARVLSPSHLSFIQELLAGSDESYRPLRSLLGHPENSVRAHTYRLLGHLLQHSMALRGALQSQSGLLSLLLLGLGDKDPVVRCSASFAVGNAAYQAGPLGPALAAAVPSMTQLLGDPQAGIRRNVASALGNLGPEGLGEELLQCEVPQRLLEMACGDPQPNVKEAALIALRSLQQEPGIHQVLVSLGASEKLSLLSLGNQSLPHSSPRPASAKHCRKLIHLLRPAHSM
Chain of UniProt Q9Y243 (whole entry, looked up): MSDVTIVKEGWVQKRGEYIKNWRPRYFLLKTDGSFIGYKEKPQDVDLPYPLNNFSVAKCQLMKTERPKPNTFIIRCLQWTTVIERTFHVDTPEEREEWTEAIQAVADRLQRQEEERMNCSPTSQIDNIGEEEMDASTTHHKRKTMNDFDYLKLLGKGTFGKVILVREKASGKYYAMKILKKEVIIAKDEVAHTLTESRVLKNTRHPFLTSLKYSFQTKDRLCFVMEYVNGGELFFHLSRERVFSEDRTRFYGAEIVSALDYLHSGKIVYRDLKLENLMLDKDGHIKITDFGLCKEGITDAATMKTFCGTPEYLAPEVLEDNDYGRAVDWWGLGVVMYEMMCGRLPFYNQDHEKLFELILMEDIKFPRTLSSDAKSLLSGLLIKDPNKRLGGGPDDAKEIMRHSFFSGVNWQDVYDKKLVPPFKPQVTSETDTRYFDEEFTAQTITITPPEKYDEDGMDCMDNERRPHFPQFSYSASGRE
Chain of UniProt P57059 (whole entry, looked up): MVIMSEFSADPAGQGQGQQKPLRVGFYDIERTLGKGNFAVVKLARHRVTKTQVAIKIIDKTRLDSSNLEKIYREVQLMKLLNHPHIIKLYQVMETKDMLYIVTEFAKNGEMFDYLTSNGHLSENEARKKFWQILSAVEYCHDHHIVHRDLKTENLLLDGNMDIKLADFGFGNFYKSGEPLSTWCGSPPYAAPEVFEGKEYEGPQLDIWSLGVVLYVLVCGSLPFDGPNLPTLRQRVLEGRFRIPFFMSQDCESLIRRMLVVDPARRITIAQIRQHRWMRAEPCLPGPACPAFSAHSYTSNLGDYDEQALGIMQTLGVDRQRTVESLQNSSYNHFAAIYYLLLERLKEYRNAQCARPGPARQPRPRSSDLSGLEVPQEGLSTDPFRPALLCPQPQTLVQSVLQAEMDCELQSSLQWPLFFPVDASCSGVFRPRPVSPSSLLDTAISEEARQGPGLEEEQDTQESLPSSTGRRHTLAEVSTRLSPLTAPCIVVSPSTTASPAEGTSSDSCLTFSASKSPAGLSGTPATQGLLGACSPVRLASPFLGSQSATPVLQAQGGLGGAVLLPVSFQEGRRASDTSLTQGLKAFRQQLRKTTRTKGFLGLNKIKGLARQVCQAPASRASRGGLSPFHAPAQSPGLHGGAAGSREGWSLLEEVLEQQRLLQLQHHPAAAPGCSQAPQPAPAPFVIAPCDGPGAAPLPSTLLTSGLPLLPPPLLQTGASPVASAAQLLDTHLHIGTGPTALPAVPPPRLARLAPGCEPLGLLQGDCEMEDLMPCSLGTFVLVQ
Chain of UniProt P07948 (whole entry, looked up): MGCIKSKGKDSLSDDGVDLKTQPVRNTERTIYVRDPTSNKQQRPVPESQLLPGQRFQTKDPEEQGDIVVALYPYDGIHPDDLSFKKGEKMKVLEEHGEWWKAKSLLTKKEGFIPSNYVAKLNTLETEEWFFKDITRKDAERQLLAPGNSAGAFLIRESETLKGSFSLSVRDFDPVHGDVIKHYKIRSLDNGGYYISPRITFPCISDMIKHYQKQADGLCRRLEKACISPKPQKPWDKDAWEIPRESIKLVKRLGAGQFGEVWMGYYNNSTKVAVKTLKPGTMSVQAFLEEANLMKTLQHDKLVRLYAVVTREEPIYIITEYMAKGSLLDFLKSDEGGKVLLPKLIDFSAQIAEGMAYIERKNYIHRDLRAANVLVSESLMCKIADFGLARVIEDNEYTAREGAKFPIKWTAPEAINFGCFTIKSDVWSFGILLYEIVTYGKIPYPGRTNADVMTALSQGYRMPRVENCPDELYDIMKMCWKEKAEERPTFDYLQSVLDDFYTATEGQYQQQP
Chain of UniProt O60285 (whole entry, looked up): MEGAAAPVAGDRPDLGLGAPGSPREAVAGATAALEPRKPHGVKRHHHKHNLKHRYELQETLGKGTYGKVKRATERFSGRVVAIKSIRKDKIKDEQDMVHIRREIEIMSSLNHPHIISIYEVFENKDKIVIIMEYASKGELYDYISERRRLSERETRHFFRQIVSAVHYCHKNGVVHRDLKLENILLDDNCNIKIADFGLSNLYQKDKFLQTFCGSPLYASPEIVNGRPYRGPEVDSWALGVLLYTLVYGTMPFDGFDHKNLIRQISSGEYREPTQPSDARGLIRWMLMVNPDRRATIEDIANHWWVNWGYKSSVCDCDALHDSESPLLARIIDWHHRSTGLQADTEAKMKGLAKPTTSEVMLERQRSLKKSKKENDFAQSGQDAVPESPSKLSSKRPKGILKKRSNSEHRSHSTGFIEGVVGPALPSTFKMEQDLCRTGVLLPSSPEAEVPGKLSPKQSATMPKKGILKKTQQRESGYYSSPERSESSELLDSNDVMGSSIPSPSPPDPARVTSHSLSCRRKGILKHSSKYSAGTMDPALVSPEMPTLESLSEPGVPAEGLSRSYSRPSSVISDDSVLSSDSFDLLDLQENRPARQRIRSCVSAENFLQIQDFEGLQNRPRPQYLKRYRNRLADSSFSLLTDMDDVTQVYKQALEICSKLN
Chain of UniProt O15264 (whole entry, looked up): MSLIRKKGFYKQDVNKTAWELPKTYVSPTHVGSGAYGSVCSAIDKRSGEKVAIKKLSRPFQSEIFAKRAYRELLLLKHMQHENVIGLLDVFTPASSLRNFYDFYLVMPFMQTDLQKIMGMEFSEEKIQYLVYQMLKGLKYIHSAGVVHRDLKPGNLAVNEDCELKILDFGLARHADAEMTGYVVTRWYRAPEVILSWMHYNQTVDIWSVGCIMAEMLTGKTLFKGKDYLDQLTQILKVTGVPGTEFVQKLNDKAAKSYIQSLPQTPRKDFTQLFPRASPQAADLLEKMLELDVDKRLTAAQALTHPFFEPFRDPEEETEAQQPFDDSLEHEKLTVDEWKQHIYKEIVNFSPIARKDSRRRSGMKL
Chain of UniProt Q9P1W9 (whole entry, looked up): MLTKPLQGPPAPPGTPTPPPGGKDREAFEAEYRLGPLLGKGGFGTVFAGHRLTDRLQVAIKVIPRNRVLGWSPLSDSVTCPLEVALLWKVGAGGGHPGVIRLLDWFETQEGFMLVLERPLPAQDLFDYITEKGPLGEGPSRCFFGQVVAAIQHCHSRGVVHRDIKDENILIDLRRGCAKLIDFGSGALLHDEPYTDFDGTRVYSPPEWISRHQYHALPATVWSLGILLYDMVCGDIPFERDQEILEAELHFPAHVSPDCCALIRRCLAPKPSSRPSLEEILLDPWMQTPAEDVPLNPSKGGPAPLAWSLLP

Block 1
Cell line: mouse MPNST tumor cells
Method: high-content immunofluorescence imaging
Refers to: nuclear SOX9
Concentration: 10 µM
Time: 12 h
Setting: mean of 2 replicates
Reference: DMSO control
Reading: higher = more nuclear SOX9
Compound	nuclear SOX9 intensity
O=C1CSC(c2ccccc2Cl)c2cc(Cl)ccc2N1 (stereo not drawn)	94.5 % of DMSO
CN1CCc2cc(Cl)c(O)cc2[C@H]2c3ccccc3CC[C@@H]21	152 % of DMSO
CC(=O)[C@H]1CC[C@H]2[C@@H]3CC[C@@H]4C[C@H](O)CC[C@]4(C)[C@H]3CC[C@]12C	103 % of DMSO
C[C@]12CC[C@H](O)C[C@H]1CC[C@@H]1[C@@H]2CC[C@]2(C)[C@@H](C3=CC(=O)OC3)CC[C@]12O	98.6 % of DMSO

Block 2
Organism: Sarcocystis neurona
Observed: parasite growth
Concentration: concentration not given
Setting: secondary screen
Compound	inhibition
COC(=O)N1CCN(C(=O)Cc2ccc(Cl)c(Cl)c2)C(CN2CCCC2)C1.O=C(O)/C=C/C(=O)O (stereo not drawn)	-23.6%
C[N+]1(C)CCN(c2ccccc2)CC1.[I-]	-15%
CN1CC[C@@H](c2ccc(F)cc2)[C@H](COc2ccc3c(c2)OCO3)C1	-15.3%
Cl.O.Oc1ccc2c3c1O[C@H]1c4[nH]c5ccccc5c4C[C@@]4(O)[C@@H](C2)N(CC2CC2)CC[C@]314	-20.7%
C=C(C)CN1CC[C@]23c4c5ccc(O)c4O[C@H]2c2[nH]c4ccccc4c2C[C@@]3(O)C1C5.Cl.O	-42.1%

Block 3
Structure (SMILES): CC[C@@H](C)c1nc2cc(Nc3ccnc4ccc(S(=O)(=O)C(C)C)cc34)ccc2s1.Cl
Method: CCK-8
cell line	setting	survival
L929 RIPK3-/- reexpressing RIPK3 K51A/R69H	25 µM, with: zVAD	80.9% and 80.5% and 78.1% and 78% and 92.1%
L929 RIPK3-/- reexpressing RIPK3 K51A	6.25 µM, with: zVAD	92.7% and 86.7% and 104% and 100% and 102%
L929 RIPK3-/- reexpressing RIPK3 K51A	12.5 µM	112% and 98.5% and 90.5% and 86.5% and 95.9%
L929 RIPK3-/- reexpressing RIPK3 K51A/R69H	6.25 µM, with: zVAD	99.8% and 93.8% and 93.7% and 92.3% and 100%

Block 4
SMILES: O=C1NC(=O)c2c1c1c3ccccc3n3c1c1c2c2ccccc2n1[C@H]1CC[C@@H]3O1
Observed: enzyme activity
Mode: inhibitor
Concentration: 0.5 µM
Reference: control
target	remaining activity [%]
SGK1 (Homo sapiens, UniProt O00141)	23.8
NUAK1 (Homo sapiens, UniProt O60285)	2.09
SRPK3 (Homo sapiens, UniProt Q9UPE1)	63.6
FGFR4 (Homo sapiens, UniProt P22455)	70.4

Block 5
Structure (SMILES): Cn1cncc1[C@@](O)(COc1ccc(C#N)cc1-c1ccc(OC(F)(F)F)cc1)c1ccc(C#N)cc1
Concentration: 1 µM
target	assay	remaining binding [%]
SIK1 (Homo sapiens, UniProt P57059)	competition binding	100
STK25 (Homo sapiens, UniProt O00506)	cell-free assay, competition with immobilised ligand	95
FGFR3 (Homo sapiens, UniProt P22607, G697C)	cell-free assay, competition with immobilised ligand	97
Tyrosine-protein kinase ABL1, phosphorylated (ABL1, Homo sapiens, UniProt P00519, T315I)	cell-free assay, competition with immobilised ligand	6.1
EPHB4 (Homo sapiens, UniProt P54760)	cell-free assay, competition with immobilised ligand	100
EIF2AK2 (Homo sapiens, UniProt P19525)	cell-free assay, competition with immobilised ligand	100
BMPR1B (Homo sapiens, UniProt O00238)	cell-free assay, competition with immobilised ligand	96
EGFR (Homo sapiens, UniProt P00533, del747-750/T751S)	cell-free assay, competition with immobilised ligand	60
FLT3 (Homo sapiens, UniProt P36888, D835Y)	cell-free assay, competition with immobilised ligand	78
RET (Homo sapiens, UniProt P07949, V804L)	cell-free assay, competition with immobilised ligand	89
MAPK13 (Homo sapiens, UniProt O15264)	cell-free assay, competition with immobilised ligand	90
MTOR (Homo sapiens, UniProt P42345)	cell-free assay, competition with immobilised ligand	100
CDK11A (Homo sapiens, UniProt Q9UQ88)	binding, competition with immobilised ligand	100
STK36 (Homo sapiens, UniProt Q9NRP7)	cell-free assay, competition with immobilised ligand	93
GSK3B (Homo sapiens, UniProt P49841)	cell-free assay, competition with immobilised ligand	100
CASK (Homo sapiens, UniProt O14936)	cell-free assay, competition with immobilised ligand	92
LYN (Homo sapiens, UniProt P07948)	cell-free assay, competition with immobilised ligand	100
EGFR (Homo sapiens, UniProt P00533, L858R/T790M)	cell-free assay, competition with immobilised ligand	96
PIM2 (Homo sapiens, UniProt Q9P1W9)	cell-free assay, competition with immobilised ligand	100
Myosin-IIIa (MYO3A, Homo sapiens, UniProt Q8NEV4)	binding, competition with immobilised ligand	98
CDK13 (Homo sapiens, UniProt Q14004)	cell-free assay, competition with immobilised ligand	87
STK32A (Homo sapiens, UniProt Q8WU08)	cell-free assay, competition with immobilised ligand	75
AKT3 (Homo sapiens, UniProt Q9Y243)	cell-free assay, competition with immobilised ligand	100
MET (Homo sapiens, UniProt P08581, Y1235D)	cell-free assay, competition with immobilised ligand	100
PIP4K2B (Homo sapiens, UniProt P78356)	cell-free assay, competition with immobilised ligand	100

Block 6
Host: mouse
Matrix: microsomes or S9
Concentration: 2 µM
Time: 0.5 h
SMILES	remaining compound [%]
NC1=NC(c2ccccc2)(c2ccccc2)C(=O)N1	88.7
N#Cc1cccc(N2C[C@@H](c3cccc(F)c3F)[C@@H]3[C@H]2C2CCN3CC2)n1	28
OC(c1ccccc1)(c1ccccc1)C1CCCN1 (stereo not drawn)	58.2
O=c1c2c(Cl)cccc2nc([C@@H]2CCCN2)n1-c1ccccc1	> 100

Block 7
Target: Calcium/calmodulin-dependent protein kinase type II subunit alpha (CAMK2A, Homo sapiens, UniProt Q9UQM7)
Chain of UniProt Q9UQM7 (whole entry, looked up): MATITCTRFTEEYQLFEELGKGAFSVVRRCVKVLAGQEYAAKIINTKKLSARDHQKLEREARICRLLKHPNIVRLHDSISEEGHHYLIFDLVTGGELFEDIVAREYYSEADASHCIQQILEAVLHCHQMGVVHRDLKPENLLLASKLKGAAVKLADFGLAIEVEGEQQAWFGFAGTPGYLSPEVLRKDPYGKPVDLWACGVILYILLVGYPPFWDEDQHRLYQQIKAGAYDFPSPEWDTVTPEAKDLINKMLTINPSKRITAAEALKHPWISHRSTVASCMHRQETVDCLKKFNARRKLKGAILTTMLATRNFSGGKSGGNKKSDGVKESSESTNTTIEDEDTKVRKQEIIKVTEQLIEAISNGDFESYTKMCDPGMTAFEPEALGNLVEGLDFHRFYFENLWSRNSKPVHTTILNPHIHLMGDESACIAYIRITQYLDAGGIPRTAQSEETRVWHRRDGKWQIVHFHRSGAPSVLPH
Observed: enzyme activity
Mode: inhibitor
Concentration: 10 µM
SMILES	inhibition [%]
CN1CC[C@]23C(=O)C[C@H]4C(=CCO[C@H]5CC(=O)N(c6c(O)cccc62)[C@H]3[C@H]54)C1	-2
COc1cccc(C=O)c1	29
C[C@]12CC[C@H](O)C[C@H]1CC[C@@H]1[C@@H]2[C@H](O)C[C@]2(C)[C@@H](c3ccc(=O)oc3)CC[C@]12O	3
O=C1C=CC(=O)c2c(O)ccc(O)c21	-16

Mixed results
Structure (SMILES)	cell line	setting	measurement	result
NC(=O)CN1CCCC1=O	A-375	100 µM, 36 h	viability	120%

Repeated from above (block 5):
target	assay	remaining binding [%]
FLT3 (Homo sapiens, UniProt P36888, D835Y)	cell-free assay, competition with immobilised ligand	78
Tyrosine-protein kinase ABL1, phosphorylated (ABL1, Homo sapiens, UniProt P00519, T315I)	cell-free assay, competition with immobilised ligand	6.1
RET (Homo sapiens, UniProt P07949, V804L)	cell-free assay, competition with immobilised ligand	89
